# Published values from different studies.
# Protocols differ between the studies behind these lines. Several values in a cell are separate wells, animals, samples, runs or records. ± gives the spread as reported.
# Cell line: RAW264.7
Structure (SMILES),test,conditions,IC50
CCCCn1cc(C(=O)O)c(=O)c2cc(F)c(Nc3cccc(Cl)c3)c([N+](=O)[O-])c21,"nitric oxide production, Griess","24 h, added: LPS",30.1 ± 0.5 µg/mL
O=C(/C=C/CI)O[C@@H]1COC(=O)C1,"NO release, inhibitor",LPS-stimulated,0.9 µM
CC[C@H](C)[C@H](NC(=O)OC(C)(C)C)C(=O)Oc1c(OC)ccc2c1[C@@]13CCN(C)[C@@H](C2)[C@H]1C=C(OC)C(=O)C3,"NO release, inhibitor, Griess",LPS-stimulated,44.1 µM
O=C(/C=C/CCl)OC1CCOC1=O (racemic),"NO release, inhibitor",LPS-stimulated,19.6 µM
COC1=C[C@@H]2[C@@H]3Cc4ccc(OC)c(OC(=O)c5cnc(C)cn5)c4[C@]2(CCN3C)CC1=O,"NO release, inhibitor, Griess",LPS-stimulated,50.4 µM
CCCCn1cc(C(=O)O)c(=O)c2cc(F)c3c(nnn3-c3cccc(Cl)c3)c21,"NO release, inhibitor, Griess",LPS-stimulated,78 µM and 77.7 µM
COc1ccc(-n2cc(C(=O)N3C[C@]4(OC(=O)c5ccccc5NC(C)=O)CC[C@H](OC)[C@@]56[C@@H]4C[C@@H]([C@@H]35)[C@@]3(O)C[C@H](OC)[C@H]4C[C@@H]6[C@]3(O)[C@H]4OC)nn2)cc1,"TNF-α release, inhibitor, ELISA","24 h, LPS-stimulated",89.7 µM
COC1=C[C@@H]2[C@@H]3Cc4ccc(OC)c(OC(=O)[C@@H]5CCCN5C(=O)OC(C)(C)C)c4[C@]2(CCN3C)CC1=O,"NO release, inhibitor, Griess",LPS-stimulated,51.4 µM
CCCCn1cc(C(=O)O)c(=O)c2cc(F)c(Nc3ccccc3Cl)c([N+](=O)[O-])c21,"nitric oxide production, Griess","24 h, added: LPS",31.4 ± 5.31 µg/mL
